Measured values of several laboratories.
Parts stem from different laboratories: compare values within a part only.
Chain of UniProt Q16512 (whole entry, looked up): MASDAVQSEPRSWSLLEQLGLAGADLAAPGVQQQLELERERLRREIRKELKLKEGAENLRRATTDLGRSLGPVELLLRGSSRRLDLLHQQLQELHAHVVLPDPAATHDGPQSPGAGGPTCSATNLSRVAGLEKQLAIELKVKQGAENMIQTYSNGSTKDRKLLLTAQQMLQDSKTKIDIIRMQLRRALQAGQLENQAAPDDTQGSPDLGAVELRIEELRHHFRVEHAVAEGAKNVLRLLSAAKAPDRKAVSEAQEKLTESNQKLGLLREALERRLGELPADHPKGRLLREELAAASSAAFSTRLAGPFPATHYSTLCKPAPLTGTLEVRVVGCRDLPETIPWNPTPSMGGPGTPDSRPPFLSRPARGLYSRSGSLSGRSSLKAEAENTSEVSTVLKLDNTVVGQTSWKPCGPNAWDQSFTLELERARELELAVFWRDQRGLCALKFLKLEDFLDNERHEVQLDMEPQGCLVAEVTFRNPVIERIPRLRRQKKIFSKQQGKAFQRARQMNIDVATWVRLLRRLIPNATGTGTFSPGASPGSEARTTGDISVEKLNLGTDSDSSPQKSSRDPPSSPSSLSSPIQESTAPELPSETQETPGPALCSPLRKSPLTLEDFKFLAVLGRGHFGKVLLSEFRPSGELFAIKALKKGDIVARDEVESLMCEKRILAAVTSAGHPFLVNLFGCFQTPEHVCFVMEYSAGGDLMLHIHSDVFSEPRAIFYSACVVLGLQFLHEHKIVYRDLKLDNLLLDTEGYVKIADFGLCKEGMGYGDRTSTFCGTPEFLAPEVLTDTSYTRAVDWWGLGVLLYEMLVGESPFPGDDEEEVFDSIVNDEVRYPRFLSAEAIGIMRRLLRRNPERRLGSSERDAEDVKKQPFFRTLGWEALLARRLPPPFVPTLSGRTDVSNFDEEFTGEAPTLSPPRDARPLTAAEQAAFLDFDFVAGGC
Chain of UniProt O75676 (whole entry, looked up): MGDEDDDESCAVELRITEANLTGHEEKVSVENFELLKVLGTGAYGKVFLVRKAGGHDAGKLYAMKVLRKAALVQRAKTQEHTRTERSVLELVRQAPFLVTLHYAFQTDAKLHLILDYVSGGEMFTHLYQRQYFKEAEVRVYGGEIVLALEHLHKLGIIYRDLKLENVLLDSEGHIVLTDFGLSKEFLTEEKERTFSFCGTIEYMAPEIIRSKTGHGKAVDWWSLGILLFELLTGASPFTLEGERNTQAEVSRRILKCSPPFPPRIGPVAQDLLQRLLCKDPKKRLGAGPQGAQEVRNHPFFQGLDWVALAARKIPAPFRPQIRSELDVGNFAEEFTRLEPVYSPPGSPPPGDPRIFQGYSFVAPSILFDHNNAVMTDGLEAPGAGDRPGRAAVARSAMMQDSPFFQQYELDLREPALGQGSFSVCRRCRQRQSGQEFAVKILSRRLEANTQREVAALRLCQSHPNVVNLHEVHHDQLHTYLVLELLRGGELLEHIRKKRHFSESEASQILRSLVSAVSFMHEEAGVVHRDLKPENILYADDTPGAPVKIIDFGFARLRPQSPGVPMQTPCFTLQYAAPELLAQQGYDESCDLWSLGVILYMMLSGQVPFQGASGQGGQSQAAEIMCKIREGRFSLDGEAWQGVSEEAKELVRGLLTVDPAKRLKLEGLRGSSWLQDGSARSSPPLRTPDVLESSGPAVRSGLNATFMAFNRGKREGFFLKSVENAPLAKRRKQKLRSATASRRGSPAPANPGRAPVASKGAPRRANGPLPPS
Chain of UniProt P21802 (whole entry, looked up): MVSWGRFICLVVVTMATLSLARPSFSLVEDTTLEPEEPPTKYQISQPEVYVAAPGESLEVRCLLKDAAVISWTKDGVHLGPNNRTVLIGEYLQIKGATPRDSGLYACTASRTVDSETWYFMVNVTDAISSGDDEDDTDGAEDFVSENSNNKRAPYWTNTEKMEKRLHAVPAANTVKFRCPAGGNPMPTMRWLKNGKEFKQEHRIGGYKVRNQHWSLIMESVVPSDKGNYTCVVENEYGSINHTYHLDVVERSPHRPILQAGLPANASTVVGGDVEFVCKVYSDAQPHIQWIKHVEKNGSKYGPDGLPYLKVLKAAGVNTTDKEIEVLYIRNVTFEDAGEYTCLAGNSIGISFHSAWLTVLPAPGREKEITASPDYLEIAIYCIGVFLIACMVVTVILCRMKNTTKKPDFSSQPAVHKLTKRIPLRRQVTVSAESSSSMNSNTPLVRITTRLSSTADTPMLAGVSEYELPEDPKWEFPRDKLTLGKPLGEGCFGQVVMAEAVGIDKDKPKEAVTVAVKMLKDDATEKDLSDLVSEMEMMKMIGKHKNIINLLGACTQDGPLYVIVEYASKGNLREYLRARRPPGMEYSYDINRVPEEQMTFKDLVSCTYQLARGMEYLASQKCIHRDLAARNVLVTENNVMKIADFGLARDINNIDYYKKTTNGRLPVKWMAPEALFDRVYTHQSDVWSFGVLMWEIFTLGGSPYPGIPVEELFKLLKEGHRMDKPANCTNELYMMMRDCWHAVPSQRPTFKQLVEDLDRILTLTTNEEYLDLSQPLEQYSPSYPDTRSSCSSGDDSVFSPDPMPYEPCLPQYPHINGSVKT
Chain of UniProt Q9HBY8 (whole entry, looked up): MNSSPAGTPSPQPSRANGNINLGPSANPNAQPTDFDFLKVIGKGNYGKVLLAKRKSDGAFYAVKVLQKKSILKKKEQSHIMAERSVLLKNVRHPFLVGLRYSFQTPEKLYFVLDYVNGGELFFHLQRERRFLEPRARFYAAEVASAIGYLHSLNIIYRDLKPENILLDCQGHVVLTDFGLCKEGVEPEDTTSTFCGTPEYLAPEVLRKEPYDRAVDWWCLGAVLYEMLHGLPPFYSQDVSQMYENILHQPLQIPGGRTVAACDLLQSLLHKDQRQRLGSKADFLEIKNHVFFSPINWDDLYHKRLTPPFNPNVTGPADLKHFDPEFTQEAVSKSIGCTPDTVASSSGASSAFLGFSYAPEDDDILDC
Chain of UniProt Q99759 (whole entry, looked up): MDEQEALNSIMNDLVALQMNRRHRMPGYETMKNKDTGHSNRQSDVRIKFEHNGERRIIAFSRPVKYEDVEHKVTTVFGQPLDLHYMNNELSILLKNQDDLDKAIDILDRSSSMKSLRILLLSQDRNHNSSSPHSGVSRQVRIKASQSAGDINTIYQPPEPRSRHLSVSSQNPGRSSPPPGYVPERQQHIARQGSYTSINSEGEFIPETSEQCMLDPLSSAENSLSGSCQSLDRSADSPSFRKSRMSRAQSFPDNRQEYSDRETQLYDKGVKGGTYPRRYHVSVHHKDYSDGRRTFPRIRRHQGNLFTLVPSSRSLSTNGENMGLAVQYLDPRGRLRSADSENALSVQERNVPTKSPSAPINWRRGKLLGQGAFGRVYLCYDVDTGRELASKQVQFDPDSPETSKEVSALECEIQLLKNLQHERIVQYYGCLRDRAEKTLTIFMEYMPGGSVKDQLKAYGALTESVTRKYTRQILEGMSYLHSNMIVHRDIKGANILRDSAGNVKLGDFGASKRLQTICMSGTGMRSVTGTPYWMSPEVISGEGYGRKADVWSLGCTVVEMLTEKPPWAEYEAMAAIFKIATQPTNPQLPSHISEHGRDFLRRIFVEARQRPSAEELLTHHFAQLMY
Chain of UniProt P10721 (whole entry, unmodified, looked up): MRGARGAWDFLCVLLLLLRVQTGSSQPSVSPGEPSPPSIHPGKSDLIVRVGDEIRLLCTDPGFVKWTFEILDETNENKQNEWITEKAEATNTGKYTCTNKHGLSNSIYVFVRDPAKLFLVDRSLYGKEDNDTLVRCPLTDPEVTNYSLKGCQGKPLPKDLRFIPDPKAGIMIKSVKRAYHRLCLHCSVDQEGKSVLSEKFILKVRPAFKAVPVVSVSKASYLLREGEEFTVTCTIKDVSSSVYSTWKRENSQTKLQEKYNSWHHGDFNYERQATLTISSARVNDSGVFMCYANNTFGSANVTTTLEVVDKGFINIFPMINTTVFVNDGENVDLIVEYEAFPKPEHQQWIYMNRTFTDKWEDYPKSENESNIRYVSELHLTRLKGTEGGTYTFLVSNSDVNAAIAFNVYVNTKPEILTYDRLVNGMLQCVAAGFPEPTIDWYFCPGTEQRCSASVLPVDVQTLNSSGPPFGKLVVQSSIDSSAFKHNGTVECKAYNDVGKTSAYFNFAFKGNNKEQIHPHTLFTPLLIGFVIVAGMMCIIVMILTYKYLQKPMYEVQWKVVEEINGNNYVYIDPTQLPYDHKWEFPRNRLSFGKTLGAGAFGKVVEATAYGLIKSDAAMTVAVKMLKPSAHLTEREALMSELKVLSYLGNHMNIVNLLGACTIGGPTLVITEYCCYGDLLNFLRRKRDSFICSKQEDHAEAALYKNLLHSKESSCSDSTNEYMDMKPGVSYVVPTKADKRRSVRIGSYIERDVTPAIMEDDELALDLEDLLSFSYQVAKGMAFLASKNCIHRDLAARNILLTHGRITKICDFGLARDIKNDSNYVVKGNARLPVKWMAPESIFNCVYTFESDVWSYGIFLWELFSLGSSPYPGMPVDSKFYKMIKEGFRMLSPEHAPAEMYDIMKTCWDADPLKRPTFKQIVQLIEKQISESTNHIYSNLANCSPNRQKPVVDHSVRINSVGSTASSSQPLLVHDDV
Chain of UniProt Q52WX2 (whole entry, looked up): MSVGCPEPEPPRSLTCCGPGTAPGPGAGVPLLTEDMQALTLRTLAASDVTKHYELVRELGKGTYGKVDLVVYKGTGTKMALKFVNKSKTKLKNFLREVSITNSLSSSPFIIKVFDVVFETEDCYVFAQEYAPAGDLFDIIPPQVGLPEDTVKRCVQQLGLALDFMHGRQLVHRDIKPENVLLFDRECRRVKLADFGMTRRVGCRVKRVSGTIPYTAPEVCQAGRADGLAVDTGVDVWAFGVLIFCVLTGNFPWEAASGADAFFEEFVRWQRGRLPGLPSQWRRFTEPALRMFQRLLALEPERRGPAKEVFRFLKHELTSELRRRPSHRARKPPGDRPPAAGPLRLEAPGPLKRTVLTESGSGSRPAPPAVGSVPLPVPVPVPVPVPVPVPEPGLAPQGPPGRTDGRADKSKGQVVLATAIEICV

Series 1 — method: competition with immobilised ligand; tested at: 1 µM; measurement: remaining binding
Compound: NS(=O)(=O)c1cc(NC(=O)Cc2ccccc2)ccc1Oc1cccc(Cl)c1
target = Ribosomal protein S6 kinase alpha-3, N-terminal kinase domain (RPS6KA3, Homo sapiens, UniProt P51812); effect on = cell-free assay; result = 72%
target = Ribosomal protein S6 kinase alpha-4, C-terminal kinase domain (RPS6KA4, Homo sapiens, UniProt O75676); effect on = cell-free assay; result = 90%
target = KIT (Homo sapiens, UniProt P10721, V559D/V654A); effect on = cell-free assay; result = 100%
target = PIK3CD (Homo sapiens, UniProt O00329); effect on = cell-free assay; result = 93%
target = PKN1 (Homo sapiens, UniProt Q16512); effect on = cell-free assay; result = 100%
target = FGFR2 (Homo sapiens, UniProt P21802); effect on = cell-free assay; result = 61%
target = SNRK (Homo sapiens, UniProt Q9NRH2); effect on = cell-free assay; result = 100%
target = ERBB3 (Homo sapiens, UniProt P21860); effect on = cell-free assay; result = 100%
target = CILK1 (Homo sapiens, UniProt Q9UPZ9); effect on = binding; result = 100%

Series 2 — cell line: mouse MPNST tumor cells; method: high-content immunofluorescence imaging; measured: nuclear SOX9; tested at: 10 µM; time: 12 h; setting: mean of 2 replicates; relative to: DMSO control; reading: higher = more nuclear SOX9; measurement: nuclear SOX9 intensity
Structure (SMILES) = COc1cc(Br)c(S(=O)(=O)Nc2ccc(C(F)(F)F)c(OC3CCN(C)C3)c2)cc1OC (stereo not drawn); result = 115 % of DMSO
Structure (SMILES) = CC(CC(=O)OC(C)(C)C)NC(=O)C1=NOC(C(O)(C(F)(F)F)C(F)(F)F)C1 (stereo not drawn); result = 126 % of DMSO
Structure (SMILES) = O=C(Nc1ccc(Cl)cc1)Nc1cccc(-c2cccc(N3CCCC3)n2)c1; result = 109 % of DMSO
Structure (SMILES) = C=CCN1CCCC1CNC(=O)c1cc2nn[nH]c2cc1OC (stereo not drawn); result = 97.4 % of DMSO
Structure (SMILES) = CN1CCCN=C1COC(=O)C(O)(c1ccccc1)C1CCCCC1 (stereo not drawn); result = 96.8 % of DMSO
Structure (SMILES) = Cc1ccc(S(=O)(=O)c2c(C)cc(C)cc2C)cc1; result = 108 % of DMSO
Structure (SMILES) = O=C(NCC(O)CO)c1c(I)c(C(=O)NCC(O)CO)c(I)c(N(CCO)C(=O)CO)c1I (stereo not drawn); result = 91.6 % of DMSO
Structure (SMILES) = Cc1noc(C)c1-c1cc(O)cc(C(O)c2ccccc2)c1 (stereo not drawn); result = 95.3 % of DMSO
Structure (SMILES) = NCCCC[C@H](N[C@@H](CCc1ccccc1)C(=O)O)C(=O)N1CCC[C@H]1C(=O)O; result = 100 % of DMSO

Series 3 — mode: inhibitor; tested at: 1 µM; measurement: inhibition
Structure (SMILES): C=CC(=O)N1CCC([C@@H]2CCNc3c(C(N)=O)c(-c4ccc(Oc5ccccc5)cc4)nn32)CC1
target = DCLK3 (Homo sapiens, UniProt Q9C098); effect on = enzyme activity; result = 0%
target = PIKFYVE (Homo sapiens, UniProt Q9Y2I7); effect on = enzyme activity; result = 5%
target = SBK1 (Homo sapiens, UniProt Q52WX2); effect on = enzyme activity; result = 2%
target = Ribosomal protein S6 kinase alpha-1, kinase domain 2 (RPS6KA1, Homo sapiens, UniProt Q15418); result = 12%
target = SGK2 (Homo sapiens, UniProt Q9HBY8); effect on = enzyme activity; result = 0%
target = MAP3K3 (Homo sapiens, UniProt Q99759); effect on = enzyme activity; result = 14%

Series 4 — effect on: enzyme activity; mode: inhibitor; tested at: 0.5 µM; relative to: control; measurement: remaining activity
Target: Serine/threonine-protein kinase Nek2 (NEK2, Homo sapiens, UniProt P51955)
Construct (P51955 1-445): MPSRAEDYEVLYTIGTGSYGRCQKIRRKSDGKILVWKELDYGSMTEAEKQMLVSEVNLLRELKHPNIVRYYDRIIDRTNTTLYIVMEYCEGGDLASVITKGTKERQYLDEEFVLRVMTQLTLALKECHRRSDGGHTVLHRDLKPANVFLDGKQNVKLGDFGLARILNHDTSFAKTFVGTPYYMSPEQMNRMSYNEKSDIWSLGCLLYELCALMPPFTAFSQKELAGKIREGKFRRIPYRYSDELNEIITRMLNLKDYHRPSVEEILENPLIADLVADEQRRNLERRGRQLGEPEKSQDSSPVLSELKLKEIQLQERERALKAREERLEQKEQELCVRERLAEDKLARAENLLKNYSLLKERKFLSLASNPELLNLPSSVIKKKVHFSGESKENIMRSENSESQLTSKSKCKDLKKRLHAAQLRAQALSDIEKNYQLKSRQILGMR
Structure (SMILES) = O=C(Nc1cccc(Nc2cc(Nc3cccc(C(F)(F)F)c3)ncn2)c1)C1CC1; result = 99.5%
Structure (SMILES) = NCCNc1ncc(C(N)=O)c(Nc2cccc(C(F)(F)F)c2)n1; result = 104%
Structure (SMILES) = CO[C@H]1C[C@@H]2CC[C@@H](C)[C@@](O)(O2)C(=O)C(=O)N2CCCC[C@H]2C(=O)O[C@H]([C@H](C)C[C@@H]2CC[C@@H](O)[C@H](OC)C2)CC(=O)[C@H](C)/C=C(\C)[C@@H](O)[C@@H](OC)C(=O)[C@H](C)C[C@H](C)/C=C/C=C/C=C/1C; result = 107%
Structure (SMILES) = O=C1NC(=O)C(c2cn(CCCO)c3ncccc23)=C1c1cnccn1; result = 97.5%
Structure (SMILES) = Nc1[nH]nc2nc3ccccc3nc12; result = 99.7%
Structure (SMILES) = CCOC(=O)c1c(C)[nH]c(/C=C2\C(=O)Nc3ccccc32)c1C; result = 91.4%
Structure (SMILES) = O=c1c2ccccc2[nH]c(=S)n1CCN1CCC(=C(c2ccc(F)cc2)c2ccc(F)cc2)CC1; result = 100%
Structure (SMILES) = Cc1cccc(-c2[nH]c(C(C)(C)C)nc2-c2ccc3c(c2)OCO3)n1; result = 107%
Structure (SMILES) = COc1cc2nccc(Oc3ccc(NC(=S)NC(=O)c4ccccc4C)cc3)c2cc1OC; result = 89%
Structure (SMILES) = OCC(O)CCON=C1C(c2c(O)[nH]c3ccccc23)=Nc2ccccc21 (stereo not drawn); result = 114%
Structure (SMILES) = COc1ccc(C(=O)Nc2sc3c(c2C(N)=O)CCCC3)cc1OC; result = 95.4%
Structure (SMILES) = Oc1ccc(-c2nc(-c3ccncc3)c(-c3ccc(F)cc3)[nH]2)cc1; result = 101%
Structure (SMILES) = COc1cc2ncnc(Nc3ccc(Oc4ccccc4)cc3)c2cc1OC; result = 111%
Structure (SMILES) = Nc1ccc2ncnc(NCCc3ccc(Oc4ccccc4)cc3)c2c1; result = 90%
Structure (SMILES) = CNC(=O)c1cc(Oc2ccc(NC(=O)Nc3ccc(Cl)c(C(F)(F)F)c3)cc2)ccn1; result = 99.3%
